Experimental data from different studies.
Lines come from different studies, so protocols differ. ± marks the error that the study gave.
CNR1: Cannabinoid receptor 1 (CNR1, Homo sapiens, UniProt P21554)
UniProt P21554, sequence (whole entry, looked up): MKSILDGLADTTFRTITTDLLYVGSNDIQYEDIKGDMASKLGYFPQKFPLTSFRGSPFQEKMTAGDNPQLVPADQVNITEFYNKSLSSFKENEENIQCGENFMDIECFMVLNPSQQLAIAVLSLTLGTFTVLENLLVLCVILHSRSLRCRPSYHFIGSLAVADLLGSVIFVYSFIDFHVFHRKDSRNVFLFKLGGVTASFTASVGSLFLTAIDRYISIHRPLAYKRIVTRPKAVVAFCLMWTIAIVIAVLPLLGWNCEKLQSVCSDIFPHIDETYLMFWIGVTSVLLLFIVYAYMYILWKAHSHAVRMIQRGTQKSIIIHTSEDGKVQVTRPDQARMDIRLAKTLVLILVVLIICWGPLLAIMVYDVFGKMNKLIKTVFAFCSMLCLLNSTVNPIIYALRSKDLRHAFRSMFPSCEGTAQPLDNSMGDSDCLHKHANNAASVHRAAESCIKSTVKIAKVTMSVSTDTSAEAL
SOST: Sclerostin (SOST, Homo sapiens, UniProt Q9BQB4)
UniProt Q9BQB4, sequence (whole entry, looked up): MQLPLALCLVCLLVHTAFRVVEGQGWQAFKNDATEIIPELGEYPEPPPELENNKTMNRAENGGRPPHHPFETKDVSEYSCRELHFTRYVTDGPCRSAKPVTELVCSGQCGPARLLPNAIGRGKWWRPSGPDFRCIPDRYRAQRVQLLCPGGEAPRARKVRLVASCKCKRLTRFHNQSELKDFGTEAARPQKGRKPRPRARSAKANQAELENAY
Kir3.1/Kir3.4: Kir3.1/Kir3.4 (Homo sapiens, UniProt P48544+P48549)
UniProt P48544, sequence (whole entry, looked up): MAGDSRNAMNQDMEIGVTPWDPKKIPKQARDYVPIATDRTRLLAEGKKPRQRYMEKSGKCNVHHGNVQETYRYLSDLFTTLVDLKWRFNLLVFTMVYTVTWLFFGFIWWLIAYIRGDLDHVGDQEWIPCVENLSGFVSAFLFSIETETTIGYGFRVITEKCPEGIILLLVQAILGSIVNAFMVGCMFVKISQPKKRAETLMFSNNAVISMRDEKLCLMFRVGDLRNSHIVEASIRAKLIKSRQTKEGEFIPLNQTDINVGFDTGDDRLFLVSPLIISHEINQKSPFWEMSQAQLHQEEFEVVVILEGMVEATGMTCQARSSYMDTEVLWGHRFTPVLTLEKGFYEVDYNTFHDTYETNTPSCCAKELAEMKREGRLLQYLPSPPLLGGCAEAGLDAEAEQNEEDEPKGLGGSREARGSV
UniProt P48549, sequence (whole entry, looked up): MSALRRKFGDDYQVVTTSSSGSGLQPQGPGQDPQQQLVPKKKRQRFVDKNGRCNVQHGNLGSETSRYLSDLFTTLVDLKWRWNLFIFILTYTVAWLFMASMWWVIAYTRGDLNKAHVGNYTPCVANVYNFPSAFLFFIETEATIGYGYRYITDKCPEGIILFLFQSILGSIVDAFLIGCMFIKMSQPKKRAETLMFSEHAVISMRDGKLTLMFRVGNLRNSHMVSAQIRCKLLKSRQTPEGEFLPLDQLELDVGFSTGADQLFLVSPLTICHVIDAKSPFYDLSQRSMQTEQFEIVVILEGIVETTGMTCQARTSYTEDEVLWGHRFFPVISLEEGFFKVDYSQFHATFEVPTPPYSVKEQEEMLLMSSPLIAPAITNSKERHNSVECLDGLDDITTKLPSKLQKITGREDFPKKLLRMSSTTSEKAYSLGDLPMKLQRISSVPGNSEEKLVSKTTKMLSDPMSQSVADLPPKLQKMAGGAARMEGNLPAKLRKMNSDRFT
UniProt Q92847, sequence (whole entry, unmodified, looked up): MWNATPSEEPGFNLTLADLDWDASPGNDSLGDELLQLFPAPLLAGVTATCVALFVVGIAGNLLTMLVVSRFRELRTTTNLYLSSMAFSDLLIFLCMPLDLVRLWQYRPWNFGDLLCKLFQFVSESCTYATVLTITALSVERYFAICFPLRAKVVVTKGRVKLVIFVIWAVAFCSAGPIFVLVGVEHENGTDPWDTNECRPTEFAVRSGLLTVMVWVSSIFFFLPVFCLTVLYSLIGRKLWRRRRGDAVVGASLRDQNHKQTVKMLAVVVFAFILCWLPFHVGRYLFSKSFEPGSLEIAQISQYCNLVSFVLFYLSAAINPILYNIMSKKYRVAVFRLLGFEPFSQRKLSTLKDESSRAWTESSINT
UniProt P62942, sequence (whole entry, looked up): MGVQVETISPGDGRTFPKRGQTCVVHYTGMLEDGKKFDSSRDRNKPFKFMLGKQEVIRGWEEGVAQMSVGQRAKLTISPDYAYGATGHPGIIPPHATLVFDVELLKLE
UniProt P0DMS8, sequence (whole entry, unmodified, looked up): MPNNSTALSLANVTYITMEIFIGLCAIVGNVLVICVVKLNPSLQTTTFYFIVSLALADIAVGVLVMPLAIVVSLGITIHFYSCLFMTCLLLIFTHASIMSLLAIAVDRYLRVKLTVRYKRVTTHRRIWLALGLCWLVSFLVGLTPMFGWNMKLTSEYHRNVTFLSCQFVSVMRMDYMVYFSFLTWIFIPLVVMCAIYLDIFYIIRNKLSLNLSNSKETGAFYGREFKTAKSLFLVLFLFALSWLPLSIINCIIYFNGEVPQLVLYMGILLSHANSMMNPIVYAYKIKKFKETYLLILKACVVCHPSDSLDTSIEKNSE
UniProt A7T1N0, sequence (whole entry, looked up): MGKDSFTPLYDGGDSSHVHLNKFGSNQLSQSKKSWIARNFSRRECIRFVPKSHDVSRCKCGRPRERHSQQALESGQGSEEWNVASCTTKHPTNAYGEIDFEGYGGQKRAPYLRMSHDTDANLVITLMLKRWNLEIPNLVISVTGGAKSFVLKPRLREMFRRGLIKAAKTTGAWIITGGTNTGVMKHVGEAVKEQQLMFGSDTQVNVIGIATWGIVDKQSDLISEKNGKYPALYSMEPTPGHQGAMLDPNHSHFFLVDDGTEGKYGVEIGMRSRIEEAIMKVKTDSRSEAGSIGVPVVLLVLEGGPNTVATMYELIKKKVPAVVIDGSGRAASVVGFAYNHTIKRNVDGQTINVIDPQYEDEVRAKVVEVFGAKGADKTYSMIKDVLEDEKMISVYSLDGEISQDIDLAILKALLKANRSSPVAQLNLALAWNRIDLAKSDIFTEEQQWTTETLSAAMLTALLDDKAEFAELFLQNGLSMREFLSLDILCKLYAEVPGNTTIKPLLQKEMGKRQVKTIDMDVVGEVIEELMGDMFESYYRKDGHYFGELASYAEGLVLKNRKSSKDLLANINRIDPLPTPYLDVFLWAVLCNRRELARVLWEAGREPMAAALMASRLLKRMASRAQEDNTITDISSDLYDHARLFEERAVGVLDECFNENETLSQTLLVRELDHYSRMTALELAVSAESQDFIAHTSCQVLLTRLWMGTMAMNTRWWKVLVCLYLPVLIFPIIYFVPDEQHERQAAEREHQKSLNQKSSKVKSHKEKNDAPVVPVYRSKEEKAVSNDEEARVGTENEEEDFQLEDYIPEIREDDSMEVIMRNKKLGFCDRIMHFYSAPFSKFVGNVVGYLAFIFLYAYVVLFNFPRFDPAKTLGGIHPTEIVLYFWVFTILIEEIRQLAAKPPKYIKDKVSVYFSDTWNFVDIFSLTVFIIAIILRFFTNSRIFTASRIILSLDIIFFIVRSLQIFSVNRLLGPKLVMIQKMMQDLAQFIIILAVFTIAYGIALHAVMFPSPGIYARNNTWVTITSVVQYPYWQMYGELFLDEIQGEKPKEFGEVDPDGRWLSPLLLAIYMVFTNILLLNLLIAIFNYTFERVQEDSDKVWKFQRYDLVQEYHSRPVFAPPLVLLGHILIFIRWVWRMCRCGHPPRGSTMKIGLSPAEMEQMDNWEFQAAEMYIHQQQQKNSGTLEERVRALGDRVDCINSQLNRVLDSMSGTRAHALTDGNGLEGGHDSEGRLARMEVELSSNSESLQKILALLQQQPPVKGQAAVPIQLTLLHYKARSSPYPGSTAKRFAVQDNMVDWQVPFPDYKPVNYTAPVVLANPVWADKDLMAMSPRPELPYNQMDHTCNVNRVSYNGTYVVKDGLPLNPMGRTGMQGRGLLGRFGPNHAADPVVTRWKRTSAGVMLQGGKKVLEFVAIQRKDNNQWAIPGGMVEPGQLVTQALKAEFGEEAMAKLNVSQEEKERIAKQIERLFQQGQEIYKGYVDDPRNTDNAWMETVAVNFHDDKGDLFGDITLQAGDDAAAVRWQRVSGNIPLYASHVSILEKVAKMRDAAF
UniProt Q92633, sequence (whole entry, looked up): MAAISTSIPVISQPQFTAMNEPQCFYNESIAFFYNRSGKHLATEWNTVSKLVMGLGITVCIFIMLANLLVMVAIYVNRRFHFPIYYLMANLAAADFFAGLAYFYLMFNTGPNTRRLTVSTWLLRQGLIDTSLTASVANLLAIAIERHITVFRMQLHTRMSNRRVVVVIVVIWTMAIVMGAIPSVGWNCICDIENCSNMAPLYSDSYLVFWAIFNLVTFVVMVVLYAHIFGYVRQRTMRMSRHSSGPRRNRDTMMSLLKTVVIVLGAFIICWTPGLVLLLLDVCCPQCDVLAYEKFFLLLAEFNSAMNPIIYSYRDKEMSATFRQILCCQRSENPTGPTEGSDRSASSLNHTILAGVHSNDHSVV
UniProt P35348, sequence (whole entry, looked up): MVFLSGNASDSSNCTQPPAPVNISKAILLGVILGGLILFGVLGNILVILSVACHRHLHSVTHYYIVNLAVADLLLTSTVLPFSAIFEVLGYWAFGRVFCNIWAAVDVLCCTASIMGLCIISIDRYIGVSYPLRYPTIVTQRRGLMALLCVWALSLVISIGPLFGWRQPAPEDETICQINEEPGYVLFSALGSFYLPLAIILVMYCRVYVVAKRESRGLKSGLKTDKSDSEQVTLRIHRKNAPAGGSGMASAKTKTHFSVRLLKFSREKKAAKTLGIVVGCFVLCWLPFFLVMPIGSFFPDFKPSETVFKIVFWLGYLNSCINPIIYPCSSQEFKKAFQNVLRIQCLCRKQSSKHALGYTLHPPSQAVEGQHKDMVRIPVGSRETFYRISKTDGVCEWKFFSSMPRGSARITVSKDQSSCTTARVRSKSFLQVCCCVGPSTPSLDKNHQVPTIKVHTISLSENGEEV

Structure (SMILES) | target | assay | system | conditions | EC50
Cc1cccc(-c2ccc([C@@H]3[C@@H](CO)N4CCCCN(S(=O)(=O)c5ccccc5C(F)(F)F)C[C@@H]34)cc2)c1C | IDE (Homo sapiens, UniProt P14735) | inhibitor | – | – | 5 nM
CCOC(=O)[C@](CC)(CCCSCCOCCOCCNC(=O)CCCCCN1C(=CC=CC=CC2=[N+](C)c3ccc4ccccc4c3C2(C)C)C(C)(C)c2c1ccc1ccccc21)NC(=O)c1ccc(C2CC2)c(Cc2ccc(F)cc2)n1 | CNR1 | cAMP, agonist | – | – | 726 nM
CC(C)Oc1cc(Cl)ccc1CNc1cc(-c2ccccc2)nc2ncnn12 | GPR3 (Homo sapiens, UniProt P46089, Q211A) | cAMP level, cAMP GloSensor | – | – | 18100 nM
CC(=O)N[C@H]1[C@H](O[C@H]2[C@H](OS(=O)(=O)O)[C@@H](OS(=O)(=O)O)[C@H](O[C@H]3[C@H](OS(=O)(=O)O)[C@@H](COS(=O)(=O)O)OC[C@@H]3NC(C)=O)O[C@@H]2C(=O)O)O[C@H](COS(=O)(=O)O)[C@@H](OS(=O)(=O)O)[C@@H]1O[C@@H]1O[C@H](C(=O)O)[C@@H](OS(=O)(=O)O)[C@H](OS(=O)(=O)O)[C@H]1OS(=O)(=O)O | SOST | fluorescence polarization competition | – | corrected value, added: TAMRA-labelled probe | 71300 ± 35500 nM
O=C1C[C@H](c2nc(-c3ccc(F)c4cn[nH]c34)no2)CCCN1c1ccc(F)cc1 (racemic) | CNR2 (Homo sapiens, UniProt P34972, F87A) | cAMP, agonist, luciferase | – | – | 794 nM
O=C(O)c1ccccc1OCc1ccccc1Br | CDC42 (Homo sapiens, UniProt P60953, Q61L) | GTP binding, activator, flow cytometry bead | – | EDTA buffer, added: 100 nM BODIPY-GTP | 50.1 nM
Fc1ccc(CN2CCC[C@@H](c3nc(-c4ccc(F)c5cn[nH]c45)no3)C2)cn1 | CNR1 | – | – | mean | 110 nM
CNc1ncnc2c1ncn2C1OC(CO)C(O)C1O (stereo not drawn) | ADORA3 (Homo sapiens, UniProt P0DMS8, L264A) | G protein activation, agonist | – | – | 12 nM
O=C(Cc1ccc(OCc2ccccc2)cc1)NC1(C(=O)O)CCN(C(=O)c2ccc(-c3cccc(Cl)c3)cc2)CC1 | CNR1 | cAMP, agonist, luciferase | – | – | > 10000 nM
O=C(COc1cccc(Cl)c1Cl)Nc1cc(C2CC2)nn1CC(F)(F)F | Kir3.1/Kir3.4 | activator, thallium flux | HEK293 | – | > 10000 nM
Cc1sc2c(c1C)C(c1ccc(Cl)cc1)=N[C@@H](CC(=O)NCC(=O)N1CCC3(CCC(C(=O)N4CCN(C(=O)c5cc(Cc6n[nH]c(=O)c7ccccc67)ccc5F)CC4)CC3)CC1)c1nnc(C)n1-2 | PARP1 (Homo sapiens, UniProt P09874) | target engagement in cells, BRET | – | – | 42 nM
CC(=O)N[C@@H]1[C@@H](O[C@@H]2O[C@H](C(=O)O)[C@@H](O[C@@H]3O[C@H](CO)[C@@H](OS(=O)(=O)O)[C@H](O[C@@H]4O[C@H](C(=O)O)[C@@H](OS(=O)(=O)O)[C@H](OS(=O)(=O)O)[C@H]4OS(=O)(=O)O)[C@H]3NC(C)=O)[C@H](OS(=O)(=O)O)[C@H]2OS(=O)(=O)O)[C@H](OS(=O)(=O)O)[C@@H](CO)O[C@H]1N=[N+]=[N-] | SOST | fluorescence polarization competition | – | added: TAMRA-labelled probe | 6700 ± 1300 nM
Cc1cc(NC(=O)COc2ccc(Cl)cc2Cl)n(CC(F)(F)F)n1 | Kir3.1/Kir3.4 | activator, thallium flux | HEK293 | – | 373 nM
CCOC(=O)C(CC)(CCCSCCCCCCNc1ccc([N+](=O)[O-])c2nonc12)NC(=O)c1ccc(C2CC2)c(Cc2ccc(F)cc2)n1 (stereo not drawn) | CNR1 | cAMP, agonist | – | – | 928 nM
COc1ccc(C(=O)c2c(C(=O)NCCCN(C)C)oc3ccc(Cl)cc3c2=O)cc1OC | GHSR (Homo sapiens, UniProt Q92847, A204E) | calcium mobilization | HEK293T, transiently transfected | – | 447 nM
Cn1c(=O)n(C2CCC(=O)NC2=O)c2ccc(C3CCN(CC(=O)Nc4cccc(CS(=O)(=O)N5CC[C@H](Nc6cccc(-c7sc(C(=O)O)c(OCC(=O)O)c7Cl)c6)CC5(C)C)c4)CC3)cc21 (stereo partly drawn) | PTPN11 (Homo sapiens, UniProt Q06124) | phosphatase activity | – | added: DiFMUP substrate | > 10000 nM
CC(=O)N[C@@H]1[C@@H](O[C@@H]2O[C@H](C(=O)O)[C@@H](O[C@@H]3O[C@H](COS(=O)(=O)O)[C@@H](O)[C@H](O[C@@H]4O[C@H](C(=O)O)[C@@H](O)[C@H](O)[C@H]4O)[C@H]3NC(C)=O)[C@H](O)[C@H]2O)[C@H](O)[C@@H](COS(=O)(=O)O)O[C@H]1N=[N+]=[N-] | SOST | fluorescence polarization competition | – | corrected value, added: TAMRA-labelled probe | 250000 ± 29100 nM

Structure (SMILES) | target | assay | system | conditions | EC50
Nc1ncnc2c1ncn2[C@@H]1O[C@H](COP(=O)(O)OP(=O)(O)OC[C@H]2OC(O)[C@H](O)[C@@H]2O)[C@@H](O)[C@H]1OP(=O)(O)O (stereo partly drawn) | TRPM2 (Nematostella vectensis, UniProt A7T1N0) | agonist | – | – | 480 ± 30 nM
CC(=O)N[C@@H]1[C@@H](O[C@@H]2O[C@H](C(=O)O)[C@@H](O[C@@H]3O[C@H](COS(=O)(=O)O)[C@@H](OS(=O)(=O)O)[C@H](O[C@@H]4O[C@H](C(=O)O)[C@@H](O[C@@H]5O[C@H](COS(=O)(=O)O)[C@@H](OS(=O)(=O)O)[C@H](O[C@@H]6O[C@H](C(=O)O)[C@@H](OS(=O)(=O)O)[C@H](OS(=O)(=O)O)[C@H]6OS(=O)(=O)O)[C@H]5NC(C)=O)[C@H](OS(=O)(=O)O)[C@H]4OS(=O)(=O)O)[C@H]3NC(C)=O)[C@H](OS(=O)(=O)O)[C@H]2OS(=O)(=O)O)[C@H](OS(=O)(=O)O)[C@@H](COS(=O)(=O)O)O[C@H]1N=[N+]=[N-] | SOST | fluorescence polarization competition | – | added: TAMRA-labelled probe | 47 ± 7 nM
O=C(NC[C@@H](Cc1ccc(F)cc1)N1CCC(O)(C(F)(F)F)CC1)C1(c2ccc(Cl)cc2)CCCC1 | TRPA1 (Homo sapiens, UniProt O75762, F938A) | – | – | – | 20 nM
CC(=O)N[C@@H]1[C@@H](O[C@@H]2O[C@H](C(=O)O)[C@@H](O[C@@H]3O[C@H](COS(=O)(=O)O)[C@@H](OS(=O)(=O)O)[C@H](O[C@@H]4O[C@H](C(=O)O)[C@@H](OS(=O)(=O)O)[C@H](OS(=O)(=O)O)[C@H]4OS(=O)(=O)O)[C@H]3NC(C)=O)[C@H](OS(=O)(=O)O)[C@H]2OS(=O)(=O)O)[C@H](OS(=O)(=O)O)[C@@H](COS(=O)(=O)O)O[C@H]1n1ccnn1 | SOST | fluorescence polarization competition | – | corrected value, added: TAMRA-labelled probe | 52400 ± 18200 nM
CCOC(=O)C(CC)(CCCSCCOCCOCCN)NC(=O)c1ccc(C2CC2)c(Cc2ccc(F)cc2)n1 (racemic) | CNR1 | cAMP, agonist | – | – | 822 nM
O=C(CCc1ccc2n1[B-](F)(F)[N+]1=C(c3ccc[nH]3)C=CC1=C2)NCCCn1cc([C@H]2CN(Cc3ccccn3)C(=O)[C@@H]3CCC[C@H]2N3S(=O)(=O)c2cc(Cl)cc(Cl)c2)nn1 | FKBP1A (Homo sapiens, UniProt P62942) | tracer binding, NanoBRET tracer titration | HEK293T transiently expressing FKBP1A | 2 h, 37 °C | 26 ± 3 nM
CNC[C@H](O)c1cccc(OCCOCCOCC#Cc2cccc(Cn3c(-c4ccccc4)c(-c4ccccc4)c4c(=N)n([C@H]5CC[C@H](O)CC5)cnc43)c2)c1 | ADRA1A (Homo sapiens, UniProt P35348) | calcium signal, agonist, fluorescence | – | – | > 10000 nM
CC1=NC(C)C(C)S1 (stereo not drawn) | uncharacterized protein (Vulpes vulpes, UniProt A0A3Q7SVK8) | cAMP, agonist | HEK293 transfected with uncharacterized protein | – | 105000 ± 20000 nM
CC(=O)N[C@@H]1[C@@H](O[C@@H]2O[C@H](C(=O)O)[C@@H](OS(=O)(=O)O)[C@H](OS(=O)(=O)O)[C@H]2OS(=O)(=O)O)[C@H](OS(=O)(=O)O)[C@@H](COS(=O)(=O)O)O[C@H]1N=[N+]=[N-] | SOST | fluorescence polarization competition | – | corrected value, added: TAMRA-labelled probe | 673000 ± 27900 nM
CCc1cc(O)cc2c(/C=N/NC(=N)NCCc3ccc(Cl)cc3)c[nH]c12 | RXFP4 (Homo sapiens, UniProt Q8TDU9, T295V) | agonist | – | – | 8.13 nM
CS[C@@H]1O[C@H](COS(=O)(=O)O)[C@@H](OS(=O)(=O)O)[C@H](O[C@@H]2O[C@H](C(=O)O)[C@@H](O[C@@H]3O[C@H](COS(=O)(=O)O)[C@@H](OS(=O)(=O)O)[C@H](O[C@@H]4O[C@H](C(=O)O)[C@@H](OS(=O)(=O)O)[C@H](OS(=O)(=O)O)[C@H]4OS(=O)(=O)O)[C@H]3NC(C)=O)[C@H](OS(=O)(=O)O)[C@H]2OS(=O)(=O)O)[C@H]1NC(C)=O | SOST | fluorescence polarization competition | – | corrected value, added: TAMRA-labelled probe | 95600 ± 22500 nM
CCOC(=O)CN1C(=O)/C(=C\c2ccc(OC)cc2)N=C1c1ccccc1 | Microtubule-associated protein tau, phosphorylated (MAPT, Homo sapiens, UniProt P10636) | tau aggregation cytotoxicity, 10-point dose response | – | – | > 28700 nM
O=C(COc1cc(Cl)ccc1Cl)Nc1cc(C2CC2)nn1C1CCOCC1 | Kir3.1/Kir3.4 | activator, thallium flux | HEK293 | – | 815 nM
CC(=O)N[C@@H]1[C@@H](O[C@@H]2O[C@H](C(=O)O)[C@@H](O[C@@H]3O[C@H](COS(=O)(=O)O)[C@@H](OS(=O)(=O)O)[C@H](O[C@@H]4O[C@H](C(=O)O)[C@@H](OS(=O)(=O)O)[C@H](OS(=O)(=O)O)[C@H]4OS(=O)(=O)O)[C@H]3NC(C)=O)[C@H](OS(=O)(=O)O)[C@H]2OS(=O)(=O)O)[C@H](OS(=O)(=O)O)[C@@H](COS(=O)(=O)O)O[C@H]1SCCOCCOCCSSCCOCCOCCS[C@@H]1O[C@H](COS(=O)(=O)O)[C@@H](OS(=O)(=O)O)[C@H](O[C@@H]2O[C@H](C(=O)O)[C@@H](O[C@@H]3O[C@H](COS(=O)(=O)O)[C@@H](OS(=O)(=O)O)[C@H](O[C@@H]4O[C@H](C(=O)O)[C@@H](OS(=O)(=O)O)[C@H](OS(=O)(=O)O)[C@H]4OS(=O)(=O)O)[C@H]3NC(C)=O)[C@H](OS(=O)(=O)O)[C@H]2OS(=O)(=O)O)[C@H]1NC(C)=O | SOST | fluorescence polarization competition | – | added: TAMRA-labelled probe | 45 ± 7 nM
CCc1cc(NC(=O)COc2ccc(C(F)(F)F)cc2C(F)(F)F)n(C2CCC(F)(F)CC2)n1 | Kir3.1/Kir3.4 | activator, thallium flux | HEK293 | – | 480 nM
CCN(CC)C(CO)c1cccc2c(C)c(C)oc12 (stereo not drawn) | LPAR1 (Homo sapiens, UniProt Q92633) | G protein activation, agonist, BRET | – | – | 2.28 nM

Excerpt of the above:
Structure (SMILES) | target | assay | system | conditions | EC50
CC(=O)N[C@@H]1[C@@H](O[C@@H]2O[C@H](C(=O)O)[C@@H](O[C@@H]3O[C@H](COS(=O)(=O)O)[C@@H](OS(=O)(=O)O)[C@H](O[C@@H]4O[C@H](C(=O)O)[C@@H](OS(=O)(=O)O)[C@H](OS(=O)(=O)O)[C@H]4OS(=O)(=O)O)[C@H]3NC(C)=O)[C@H](OS(=O)(=O)O)[C@H]2OS(=O)(=O)O)[C@H](OS(=O)(=O)O)[C@@H](COS(=O)(=O)O)O[C@H]1SCCOCCOCCSSCCOCCOCCS[C@@H]1O[C@H](COS(=O)(=O)O)[C@@H](OS(=O)(=O)O)[C@H](O[C@@H]2O[C@H](C(=O)O)[C@@H](O[C@@H]3O[C@H](COS(=O)(=O)O)[C@@H](OS(=O)(=O)O)[C@H](O[C@@H]4O[C@H](C(=O)O)[C@@H](OS(=O)(=O)O)[C@H](OS(=O)(=O)O)[C@H]4OS(=O)(=O)O)[C@H]3NC(C)=O)[C@H](OS(=O)(=O)O)[C@H]2OS(=O)(=O)O)[C@H]1NC(C)=O | SOST | fluorescence polarization competition | – | added: TAMRA-labelled probe | 45 ± 7 nM
CCc1cc(NC(=O)COc2ccc(C(F)(F)F)cc2C(F)(F)F)n(C2CCC(F)(F)CC2)n1 | Kir3.1/Kir3.4 | activator, thallium flux | HEK293 | – | 480 nM
